# Measurements pooled from the literature.
# Compare with care: the assays were run in different laboratories. Values joined by “and” are separate records of one study, mostly repeats; a detail may differ. ± marks the error that the study gave.
Compound,test,test system,conditions,scale,measurement,value
COc1cc2c(cc1OC)C(=O)C(=Cc1ccc(N3CC[N+](C)(C)CC3)cc1)C2,Morris water maze,"Wistar rat, amyloid beta-induced Alzheimer model","oral, dose not given, 21 days",,escape latency,decreased
Cc1cc(O)cc(C)c1CC(N)C(=O)NC1CCNc2c(F)cc(Cc3ccccc3)cc21 (centres unmarked),warm water tail withdrawal,male C57BL/6 mouse,"ip, 1, 3.2, 10 mg/kg cumulative",,antinociception,inactive
CC[C@H](C)[C@H](NC(=O)[C@H](CCCNC(=N)N)NC(=O)[C@H](CCC(N)=O)NC(=O)[C@H](CC(=O)O)NC(=O)[C@H](CC(C)C)NC(=O)[C@H](CC(C)C)NC(=O)[C@H](CC(N)=O)NC(=O)[C@H](Cc1ccccc1)NC(=O)[C@H](CC(=O)O)NC(=O)[C@@H](NC(=O)[C@@H](NC(=O)[C@H](CC(N)=O)NC(=O)CNC(=O)[C@H](CO)NC(C)=O)C(C)C)[C@@H](C)CC)C(=O)N[C@H](C(=O)N[C@@H](Cc1c[nH]c2ccccc12)C(=O)N[C@@H](CCC(N)=O)C(=O)N[C@@H](CC(N)=O)C(=O)N[C@@H](Cc1c[nH]c2ccccc12)C(=O)N[C@@H](Cc1ccc(O)cc1)C(=O)N[C@@H](C)C(N)=O)[C@@H](C)CC,item: HA-52 tetramer,"antigen-experienced tetramer+ CD4 T cells, healthy adults, HLA-DRB1*0101",dose not given,,α4β7− CCR9− cells,27.8%
COC[C@@H](NC(C)=O)C(=O)NCc1ccc(OCc2cccc(OC(F)(F)F)c2)cc1,"formalin test, phase II",mouse,"ip, 12 mg/kg",relative to: vehicle,licking time,98%
COc1ccc(F)cc1S(=O)(=O)Nc1cnc2c(c1)C(=O)NCCO2,item: pyridoxal 5'-phosphate,C57BL/6J mouse,"oral, 1 or 10 mg/kg, first 6 h",relative to: vehicle,plasma PLP level,increased
Cc1cc(O)cc(C)c1CC(N)C(=O)NC1CCNc2c(CN3CCOCC3)cc(Cc3ccccc3)cc21 (centres unmarked),warm water tail withdrawal,male C57BL/6 mice,"intraperitoneal, 10 mg/kg",,antinociception,inactive
CC[C@H](C)[C@H](NC(=O)[C@H](Cc1c[nH]c2ccccc12)NC(=O)[C@H](CCCNC(=N)N)NC(=O)[C@H](CCCCN)NC(=O)[C@H](CC(C)C)NC(=O)[C@H](CC(=O)O)NC(=O)[C@H](Cc1ccccc1)NC(=O)[C@H](C)NC(=O)[C@H](Cc1ccc(O)cc1)NC(=O)[C@H](CC(N)=O)NC(=O)[C@H](Cc1ccc(O)cc1)NC(=O)[C@H](CCCNC(=N)N)NC(=O)[C@H](Cc1ccc(O)cc1)NC(=O)[C@H](Cc1ccc(O)cc1)NC(=O)[C@@H](NC(=O)[C@H](CC(C)C)NC(=O)[C@H](C)NC(=O)[C@H](CC(N)=O)NC(=O)[C@H](Cc1ccc(O)cc1)NC(C)=O)[C@@H](C)CC)C(=O)N[C@@H](Cc1ccc(O)cc1)C(=O)N[C@@H](CC(C)C)C(N)=O,item: HA-51 tetramer,"antigen-experienced tetramer+ CD4 T cells, healthy adults, HLA-DRB1*0101",dose not given,,α4β7− CCR9+ cells,8.33%
COC[C@@H](NC(C)=O)C(=O)NCc1ccc(OCc2ccccc2)cc1,"formalin test, phase II",mouse,"ip, 5.8 mg/kg",relative to: vehicle,licking time,52%
CC[C@H](C)[C@H](NC(=O)[C@@H](NC(=O)[C@H](CC(=O)O)NC(C)=O)[C@@H](C)O)C(=O)N[C@@H](CCCNC(=N)N)C(=O)N[C@@H](CC(C)C)C(=O)N[C@@H](CC(C)C)C(=O)N[C@@H](Cc1ccccc1)C(=O)N[C@@H](CCC(N)=O)C(=O)N[C@@H](CC(C)C)C(=O)N[C@@H](CCSC)C(=O)N[C@@H](CCCNC(=N)N)C(=O)N1CCC[C@H]1C(=O)N1CCC[C@H]1C(=O)N[C@@H](CC(N)=O)C(=O)N[C@@H](CCSC)C(=O)N[C@H](C(=O)N1CCC[C@H]1C(=O)N[C@@H](C)C(=O)N[C@H](C(=O)N[C@@H](CC(N)=O)C(=O)N[C@@H](C)C(N)=O)C(C)C)[C@@H](C)O,item: HA-52 tetramer,"antigen-experienced tetramer+ CD4 T cells, healthy adults, HLA-DRB1*0101",dose not given,,α4β7− CCR9− cells,43.7%
C[C@@H](O)[C@H](NC(=O)[C@@H]1CSSC[C@H](NC(=O)[C@@H](Cc2ccccc2)NC(=O)CN2CCN(CC(N)=O)CCN(CC(N)=O)CCN(CC(N)=O)CC2)C(=O)N[C@@H](Cc2ccc(O)cc2)C(=O)N[C@H](Cc2c[nH]c3ccccc23)C(=O)N[C@@H](CCCCN)C(=O)N[C@@H]([C@@H](C)O)C(=O)N1)C(=O)O [lead-212 labelled],,"mice, AR-42J tumour model",single injection of 5 µCi,,median survival,6.3 weeks
CCOP(=O)(OCC)OCCCCOC(=O)CC1=C(C)/C(=C/c2ccc([S+](C)[O-])cc2)c2ccc(F)cc21 (centres unmarked),,"rat, adjuvant-induced arthritis","topical, 50 mg/kg once daily, prevention protocol, PSH vehicle","relative to: vehicle, direction not given",clinical score reduction,65% and 56%
CC[C@H](C)[C@H](NC(=O)[C@H](C)NC(=O)CNC(=O)[C@@H](N)CCSC)C(=O)N[C@@H](C)C(=O)N[C@@H](CCCCN)C(=O)N[C@@H](CC(C)C)C(=O)N[C@H](C(=O)N[C@@H](C)C(=O)N[C@@H](CCCCN)C(=O)N[C@@H](Cc1ccccc1)C(=O)NCC(=O)N[C@@H](Cc1c[nH]c2ccccc12)C(=O)N1CCC[C@H]1C(=O)N[C@@H](Cc1ccccc1)C(=O)N[C@H](C(=O)N[C@@H](CCCCN)C(=O)N[C@@H](CCCCN)C(=O)N[C@@H](Cc1ccccc1)C(=O)N[C@@H](Cc1ccc(O)cc1)C(=O)N[C@@H](CCCCN)C(=O)N[C@@H](CCC(N)=O)C(=O)N[C@H](C(=O)N[C@@H](CCSC)C(=O)N[C@@H](CCC(N)=O)C(=O)N[C@@H](CCCNC(=N)N)C(=O)N[C@H](C(=O)NCC(=O)N[C@@H](CCC(N)=O)C(=O)NCC(=O)N[C@@H](Cc1c[nH]c2ccccc12)C(=O)N[C@H](C(=O)N[C@H](C(=O)N[C@@H](CC(=O)O)C(=O)N[C@@H](CCC(N)=O)C(=O)N[C@H](C(=O)N[C@@H](CCC(=O)O)C(=O)N[C@@H](CCCCN)C(=O)N[C@@H](Cc1c[nH]c2ccccc12)C(=O)N[C@@H](CC(C)C)C(=O)N[C@@H](CCCCN)C(=O)N[C@@H](CCCNC(=N)N)C(=O)N[C@@H](Cc1c[nH]cn1)C(=O)O)[C@@H](C)CC)[C@@H](C)CC)[C@@H](C)O)[C@@H](C)CC)[C@@H](C)CC)[C@@H](C)CC)C(C)C,,PG/PE 1:1 liposomes,MIC,relative to: Triton X-100,calcein release,26.1 ± 1.5%
CCN(CCCCOc1ccc(CCC(=O)N2CCC(Cc3ccccc3)CC2)cc1OC)Cc1ccccc1,proteomics,"mouse, APP/PS1, cerebral cortex",dose not given,,VLDLR protein level,increased
Cc1ccc(/C=C/C(=O)O)cc1-c1cc2c(cc1C)C(C)(C)CCC2(C)C,"RNA sequencing, item: Upp1","rat, brain","dose not given, 24 h",relative to: vehicle,log2 fold change,0.2

# Repeated from above:
Compound,test,test system,conditions,scale,measurement,value
COc1cc2c(cc1OC)C(=O)C(=Cc1ccc(N3CC[N+](C)(C)CC3)cc1)C2,Morris water maze,"Wistar rat, amyloid beta-induced Alzheimer model","oral, dose not given, 21 days",,escape latency,decreased
